# Published values gathered from unrelated publications.
# Each numbered part is a random draw from the data of one study; scales do not carry over between parts. Changes are numbered by the printed parent chain.
# Sequence of UniProt O15294 (whole entry, looked up): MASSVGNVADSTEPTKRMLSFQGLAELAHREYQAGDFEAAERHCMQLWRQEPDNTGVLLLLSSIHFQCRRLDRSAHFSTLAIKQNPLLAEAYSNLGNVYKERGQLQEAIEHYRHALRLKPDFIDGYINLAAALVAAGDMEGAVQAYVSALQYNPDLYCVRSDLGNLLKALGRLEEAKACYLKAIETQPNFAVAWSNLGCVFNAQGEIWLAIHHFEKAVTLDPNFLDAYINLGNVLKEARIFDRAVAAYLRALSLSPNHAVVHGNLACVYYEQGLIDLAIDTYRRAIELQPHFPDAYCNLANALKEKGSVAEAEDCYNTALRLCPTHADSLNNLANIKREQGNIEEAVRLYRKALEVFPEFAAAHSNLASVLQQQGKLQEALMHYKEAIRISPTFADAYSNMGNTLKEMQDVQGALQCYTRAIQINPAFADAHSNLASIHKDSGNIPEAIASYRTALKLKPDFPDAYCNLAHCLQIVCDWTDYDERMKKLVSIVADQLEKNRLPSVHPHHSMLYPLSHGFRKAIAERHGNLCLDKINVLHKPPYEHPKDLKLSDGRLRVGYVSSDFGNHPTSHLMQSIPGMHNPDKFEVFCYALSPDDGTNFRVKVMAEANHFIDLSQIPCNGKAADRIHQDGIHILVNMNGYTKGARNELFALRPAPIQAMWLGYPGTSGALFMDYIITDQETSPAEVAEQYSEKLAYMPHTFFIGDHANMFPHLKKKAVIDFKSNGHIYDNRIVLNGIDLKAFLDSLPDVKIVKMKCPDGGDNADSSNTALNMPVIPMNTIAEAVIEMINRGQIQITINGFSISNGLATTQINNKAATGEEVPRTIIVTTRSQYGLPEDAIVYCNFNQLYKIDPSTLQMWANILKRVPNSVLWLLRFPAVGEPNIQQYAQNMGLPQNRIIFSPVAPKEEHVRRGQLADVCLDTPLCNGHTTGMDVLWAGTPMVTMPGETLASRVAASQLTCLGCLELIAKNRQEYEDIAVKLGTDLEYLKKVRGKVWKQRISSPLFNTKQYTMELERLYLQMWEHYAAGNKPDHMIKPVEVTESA

# Sample 1 — method: RNA Bind-n-Seq; molecule type: RNA; matrix: in vitro; concentration: 365 nM; baseline: no-protein control; reading: higher = stronger binding
# Target: RNA binding protein fox-1 homolog 2, RRM domain, GST-SBP tag (RBFOX2, Homo sapiens, UniProt O43251-10, residues 100-194)
# Setting: natural RNA segment, single round, ends assumed
# All sequences stand within: GGGAGUUCUACAGUCCGACGAUC … UGGAAUUCUCGGGUGCCAA
# Target sequence (chain): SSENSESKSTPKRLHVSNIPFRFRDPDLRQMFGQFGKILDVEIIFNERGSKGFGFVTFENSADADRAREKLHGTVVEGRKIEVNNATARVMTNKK
Oligonucleotide,RBNS enrichment (R)
GGGGCCUGGGCUCGGCCUAGCCAGCGCUCUCCCAGAAUUGAACACUUUCUGCCUGGGAUGUCUGCUGCAAAAGCAGUGACCUCUGACCCCUGGUGACCUUUGCUCUCGGC,0.393
GUGUCCUUUUCUUUUGCUUCAGGCUAAGAGCUGCCUCGCUCUUUGUCCCCCCAUUAGGAUUCUAUUACAUAUGCAAUUGUAGGUUCAACCUGUCCCUUUCCCUGCCAGCA,0.571
UGACCCCUCUCCUCAAGGGAAGGCCUUGGGUGGCCCCCUCUCCUUCUCCUAGCUCUGGAGGUGCUGCUCUAGGGCAGGGAAUUAUGGGAGAAGUGGGGGCAGCCCAGGCG,0.223
AGUGGAAUGAAGAGGGGGCAGGAAGCAGCCCCAGCCCAGGCCUCCAGCCCGUCCGCCUCACCUUCCCGCUAGACUAUCACCUUAACCAACCUUUCCUCUUUGUUCUGAGG,0.388
ACUCCGAUGGCCAGCAACAACACCGCCAGCAUAGCACAAGCCAGGAAGCUGGUAGAGCAGCUUAAGAUGGAAGCCAAUAUCGACAGGAUAAAGGUGUCCAAGGCAGCUGC,0.198
GAGAACUUUCCCCAGUCACCAUAGACCAUUCUCCUUCCUGAAGGCUUGGGGCAGACCAUUCGUUUAUUUAGAGAAGAGCUAUACAUUCUUCUUUCUGGUCCCAUCUUAAA,0.324
CUUGCUAGACUCCCGUUUGUUCUAAGAGUCAGGCUUAUGUAUAGCAGCUUCUAGCUGGUUCUCUAUUAUCCUGGUAAUAUUGUUUCUCAGCUCUGAAAUUUGAAAGUCUA,0.429
AAUAAAAAUAUAAAAAUAUGUACAUUACAUUUUGCUUAUUUUCAUAUAAAAGGUAAGACAGAGUUUGCAAAGCAUUUGUGGCUUUUUGUAGUUUACUUAAGCCAAAAUGU,0.493

# Sample 2 — Substance: H2BC12 (Homo sapiens, UniProt O60814); method: cross-linking MS; setting: hits only
partner,interaction screen
"H2BC9 (Homo sapiens, UniProt Q93079)",cross-linked
"H2AC7 (Homo sapiens, UniProt P20671)",cross-linked
"H2AC11 (Homo sapiens, UniProt P0C0S8)",cross-linked
"H2AC21 (Homo sapiens, UniProt Q8IUE6)",cross-linked

# Sample 3 — target: CEP164, C-terminal peptide (human); method: DHFR complementation, deep sequencing; matrix: yeast; baseline: wild type; reading: higher = weaker binding
# Setting: single substitutions, model-inferred values
# Starting sequence: PDZK1, PDZ domain 2 (human); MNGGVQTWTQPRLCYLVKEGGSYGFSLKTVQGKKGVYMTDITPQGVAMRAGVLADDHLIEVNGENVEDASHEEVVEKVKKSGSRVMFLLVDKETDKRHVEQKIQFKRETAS; partner HNRVKVYRF
Change,binding free energy change [kcal/mol]
D55T,0.733
P11N,0.315
T109A,-0.195
F25R,1.28
V36L,0.155
R84N,0.231
H98K,-0.0683
V75M,1.73

# Other studies, line by line
Sequence,target,test,system,how to read,endpoint,result
HTKGFMHRIQHHYYF,"UDP-N-acetylglucosamine--peptide N-acetylglucosaminyltransferase 110 kDa subunit (OGT, Homo sapiens, UniProt O15294)","binding, phage display NGS",peptide,baseline: input library,minimum log2 enrichment ratio,3.24

# Some of these lines once more (sample 1):
Oligonucleotide,RBNS enrichment (R)
GUGUCCUUUUCUUUUGCUUCAGGCUAAGAGCUGCCUCGCUCUUUGUCCCCCCAUUAGGAUUCUAUUACAUAUGCAAUUGUAGGUUCAACCUGUCCCUUUCCCUGCCAGCA,0.571
UGACCCCUCUCCUCAAGGGAAGGCCUUGGGUGGCCCCCUCUCCUUCUCCUAGCUCUGGAGGUGCUGCUCUAGGGCAGGGAAUUAUGGGAGAAGUGGGGGCAGCCCAGGCG,0.223
